Published values from different studies.
Each numbered part is a random draw from the data of one study; scales do not carry over between parts. Changes are numbered by the printed parent chain.

Block 1 — target: UBE2L3 UBC core domain (UniProt P68036); method: yeast two-hybrid; sample: yeast; notes: mostly zero background; relative to: not given; reading: higher = stronger interaction
Sequence of UniProt P68036 (whole entry, looked up): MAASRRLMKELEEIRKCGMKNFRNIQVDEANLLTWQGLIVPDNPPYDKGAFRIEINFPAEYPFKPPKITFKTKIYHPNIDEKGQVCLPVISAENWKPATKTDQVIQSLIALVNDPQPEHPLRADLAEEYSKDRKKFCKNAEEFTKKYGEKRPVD
B1: UBE4A RING domain (UniProt Q14139); chain LQQQEEETYADACDEFLDPIMSTLMCDPVVLPSSRVTVDRSTIARHLLSDQTDPFNRSPLTMDQIRPNTELKEKIQRWLAERKQQKEQLE
B2: RNF150 RING domain (UniProt Q9ULK6); chain DKETESDFDNCAVCIEGYKPNDVVRILPCRHLFHKSCVDPWLLDHRTCPMCKMNILKALGIP
B3: RNF14 RING domain (UniProt Q9UBS8); chain IKCFNSKLFLCSICFCEKLGSECMYFLECRHVYCKACLKDYFEIQIRDGQVQCLNCPEPKCPSVATPGQVK
B4: RNF5 RING domain (UniProt Q99942); chain ERGGAGATFECNICLETAREAVVSVCGHLYCWPCLHQWLETRPERQECPVCKAGISREKVVP
B5: TRIM38 RING domain (UniProt O00635); chain STKKMMEEATCSICLSLMTNPVSINCGHSYCHLCITDFFKNPSQKQLRQETFCCPQCRAPFHMDSLRP
B6: TRIM35 RING domain (UniProt Q9UPQ4); chain PSRSFKEELLCAVCYDPFRDAVTLRCGHNFCRGCVSRCWEVQVSPTCPVCKDRASPADLRT
B7: RFPL2 RING domain (UniProt O75678); chain MAALFQEASSCPVCSDYLEKPMSLECGCAVCLKCINSLQKEPHGEDLLCCCSSMVSRKNKIRR
B8: PHF7 RING domain (UniProt Q9BWX1); chain IQHGHVGEESCILCCEDLSQQSVENIQSPCCSQAIYHRKCIQKYAHTSAKHFFKCPQCNNRKEFPQEML
`KIKDLNEHIVCCLCAGYFVDATTITECLHTFCKSCIVKYLQTSKYCPMCNIKIHETQPLL (PCGF1 RING domain (UniProt Q9BSM1))` — result for “lacZ reporter activity”: 0.
`B1 (UBE4A RING domain)`: “lacZ reporter activity” 0.
For `B2 (RNF150 RING domain)`, “lacZ reporter activity” read 0.
Under “lacZ reporter activity”, `B3 (RNF14 RING domain)` is recorded as 0.
`B4 (RNF5 RING domain)`: “lacZ reporter activity” 0.
For `FLKKLEQSFMCVCCQELVYQPVTTECFHNVCKDCLQRSFKAQVFSCPACRHDLGQNYIMI (UHRF2 RING domain (UniProt Q96PU4))`, “lacZ reporter activity” read 0.
For `B5 (TRIM38 RING domain)`, “lacZ reporter activity” read 0.
`B6 (TRIM35 RING domain)`: “lacZ reporter activity” 0.
For `B7 (RFPL2 RING domain)`, “lacZ reporter activity” read 0.
`ISNDSETLEECMVCSDMKRDTLFGPCGHIATCSLCSPRVKKCLICKEQVQSRTKIE (MIB1 RING domain (UniProt Q86YT6))` — result for “lacZ reporter activity”: 0.
`B8 (PHF7 RING domain)`: “lacZ reporter activity” 0.

Block 2 — method: universal PBM; molecule type: double-stranded DNA, one strand shown; sample: in vitro; tested at: 600 nM; reading: higher = stronger binding
Target: Sal-like protein 4, full length isoform A (SALL4, Homo sapiens, UniProt Q9UJQ4, residues 1-1053)
Sequence of UniProt Q9UJQ4 (whole entry, looked up): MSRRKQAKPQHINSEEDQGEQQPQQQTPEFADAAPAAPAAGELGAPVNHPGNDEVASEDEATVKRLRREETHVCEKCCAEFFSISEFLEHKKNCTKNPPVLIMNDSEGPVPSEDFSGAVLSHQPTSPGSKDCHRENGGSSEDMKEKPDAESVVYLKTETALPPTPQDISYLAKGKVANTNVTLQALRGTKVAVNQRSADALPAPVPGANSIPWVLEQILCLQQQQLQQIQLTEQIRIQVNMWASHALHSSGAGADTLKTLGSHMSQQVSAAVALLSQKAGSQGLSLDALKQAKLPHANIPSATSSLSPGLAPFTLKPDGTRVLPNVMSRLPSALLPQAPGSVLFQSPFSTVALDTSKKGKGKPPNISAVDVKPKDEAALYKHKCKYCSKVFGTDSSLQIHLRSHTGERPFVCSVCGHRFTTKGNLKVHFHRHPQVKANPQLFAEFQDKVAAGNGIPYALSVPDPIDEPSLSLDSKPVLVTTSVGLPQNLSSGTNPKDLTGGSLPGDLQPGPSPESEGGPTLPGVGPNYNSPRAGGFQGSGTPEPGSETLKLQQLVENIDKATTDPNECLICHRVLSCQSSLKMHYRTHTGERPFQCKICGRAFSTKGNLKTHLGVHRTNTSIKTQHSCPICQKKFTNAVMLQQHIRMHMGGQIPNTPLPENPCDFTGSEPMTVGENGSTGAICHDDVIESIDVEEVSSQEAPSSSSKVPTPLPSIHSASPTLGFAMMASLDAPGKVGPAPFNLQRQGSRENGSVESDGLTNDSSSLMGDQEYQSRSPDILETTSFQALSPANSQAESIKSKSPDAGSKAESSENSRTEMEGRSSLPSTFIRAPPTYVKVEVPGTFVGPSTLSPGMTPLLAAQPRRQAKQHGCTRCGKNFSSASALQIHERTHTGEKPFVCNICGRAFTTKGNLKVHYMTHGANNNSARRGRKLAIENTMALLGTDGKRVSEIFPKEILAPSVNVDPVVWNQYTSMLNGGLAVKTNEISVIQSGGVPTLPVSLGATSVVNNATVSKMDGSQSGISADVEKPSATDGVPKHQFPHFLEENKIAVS
Notes: 8-mer, flanks averaged, mean of replicates
`CACACGTG` has an E-score of -0.0838.
The E-score of `TACGAGAA` is reported as 0.0291.
With `CGTCTCCA` the E-score was -0.108.
`ATCATGTC` gave an E-score of 0.084.
With `GAACCGAC` the E-score was -0.282.
With `ACTTATGG` the E-score was 0.164.
`CTTCACAC` has an E-score of 0.113.
`CCGCTACA` gave an E-score of -0.0833.
`CTTCACAA` has an E-score of 0.0996.
The E-score of `ACTGACCC` is reported as -0.199.
With `GAGGACAC` the E-score was -0.2.
With `GCTAGTAA` the E-score was 0.148.
With `AACGCTGC` the E-score was -0.103.
`GGATTTCA` gave an E-score of 0.122.
The E-score of `CCAATAGA` is reported as 0.174.
With `AACAGGTG` the E-score was -0.0816.
For `CGAGCTTC`, the E-score was -0.069.
The E-score of `ACAGCCAG` is reported as -0.165.
For `ACTTTTAC`, the E-score was 0.274.
The E-score of `CCGTTTTA` is reported as 0.066.
`ACACCCGA` gave an E-score of -0.0848.
`ATTCGTCA` has an E-score of 0.0313.
For `AAAAAGCA`, the E-score was 0.156.
The E-score of `CCCAGTCC` is reported as -0.173.
`AACAATGC` has an E-score of 0.14.

Block 3 — target: CCNA2, cyclin fold, Cln2 fusion (human); method: yeast growth competition, sequencing; sample: yeast; notes: strong parent motif; relative to: not given; reading: higher = stronger binding
Starting sequence: RB1 docking peptide (human); PKPLKKLRFDIEG
Under “normalised enrichment score”, `K2Q` is recorded as -0.227.
`D10I`: “normalised enrichment score” 0.883.
Under “normalised enrichment score”, `L4V` is recorded as 2.07.
`P1I`: “normalised enrichment score” 1.11.
`R8D` — result for “normalised enrichment score”: 1.57.
For `K6G`, “normalised enrichment score” read 1.02.
For `F9T`, “normalised enrichment score” read 0.626.
Under “normalised enrichment score”, `E12C` is recorded as 2.01.
Under “normalised enrichment score”, `D10Q` is recorded as 1.08.
Under “normalised enrichment score”, `L7R` is recorded as 0.625.
For `R8H`, “normalised enrichment score” read 0.766.
Under “normalised enrichment score”, `P1C` is recorded as 2.57.
`R8I` — result for “normalised enrichment score”: 1.97.
For `P1L`, “normalised enrichment score” read 0.415.
`E12K`: “normalised enrichment score” 0.652.

Block 4 — method: RNA Bind-n-Seq; molecule type: RNA; sample: in vitro; tested at: not given; notes: RNA with constant flanks, ends assumed; relative to: input RNA pool; reading: higher = stronger binding
Target: RING finger protein unkempt homolog, zinc fingers 1-6, GST-SBP tag (UNK, Homo sapiens, UniProt Q9C0B0, residues 30-357)
Sequence of UniProt Q9C0B0 (30-357, looked up): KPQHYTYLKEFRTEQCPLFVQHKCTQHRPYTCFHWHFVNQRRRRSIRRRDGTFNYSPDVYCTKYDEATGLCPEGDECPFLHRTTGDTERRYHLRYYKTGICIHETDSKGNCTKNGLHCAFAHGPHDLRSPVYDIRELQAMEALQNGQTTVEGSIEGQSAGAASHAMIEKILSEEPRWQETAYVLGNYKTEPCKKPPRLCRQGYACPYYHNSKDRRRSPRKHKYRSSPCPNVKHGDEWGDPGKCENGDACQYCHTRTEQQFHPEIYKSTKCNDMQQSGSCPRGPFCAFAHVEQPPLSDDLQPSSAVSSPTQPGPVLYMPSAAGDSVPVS
`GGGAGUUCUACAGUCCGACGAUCUCAUACAGUGUCAGAACAAAGGCUGGGAUGGGUAUGAUGUACAGUGGGAAUGUAAGACGGACUCCGAUAUUGCAUACAAAUUUGGAAAAACUGUGGUGAGCUGUGAAGGCUAUGAGUCCUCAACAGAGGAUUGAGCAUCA` has a bound/input enrichment of 0.276 ratio.
For `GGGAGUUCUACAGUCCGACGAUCACUCUGUGGUUAGUAAGAGGCCUUUGCUCAGGUCCCAUUCUGUUCCUCUUCCCUGCUGAGUACCGGCCGCUGGAUCCUGCGGUCCACUUUGCUUACUAUCUAACUGCCUUUGAUUGAUUGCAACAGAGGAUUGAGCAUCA`, the bound/input enrichment was 0.123 ratio.
With `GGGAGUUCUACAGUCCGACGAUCUAAUUUAUUUGUAUCAAUCCCCGCUUUAUAUUAAACGGCAACAAAAAAGCACAGAAAAUUCCGCACUUUAAUAAUUUUGACAUUAUUGUACAGCUCUUAAGUAUUUUCAAGACAGCACUACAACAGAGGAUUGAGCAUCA` the bound/input enrichment was 0.698 ratio.
`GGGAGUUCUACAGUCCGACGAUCAGUCAUCUAGAAAGAAUCUGGGCAACUGGUAACCAUGAGCGAAUGGAUGAAGAAAAGCCCCUCCGAAUGGGAAGAUUACGUUUAUAAAGAAGUGAGAGUGAUAGCCUGUGAGAAGGAGUACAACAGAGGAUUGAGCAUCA` has a bound/input enrichment of 0.377 ratio.
`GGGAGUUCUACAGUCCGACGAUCUGGGAUAGCCAAGCAAAAUCAGUAAUUAUUUUAAAAUGAACAUAUGUAUUUUUAUUAACUUUCCGUUAAAUACAGAUUUUACAACGAGGUCAGCAUAAGCCUAAAUCUAUAUAGAGGGCUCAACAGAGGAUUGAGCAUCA` has a bound/input enrichment of 3.53 ratio.
`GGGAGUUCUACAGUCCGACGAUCCGGGAUGAGGAGGUCAGCUCUGCUGACAUCAGUAGUUCGUCUGAAGUGAUUUCGCAGCACCCCGUAUCUUACAGGAACAUCGAAGAGCUUCAGCAGCAGAAUCAGCGUCUGCUAUUCGCUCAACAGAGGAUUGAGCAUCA` has a bound/input enrichment of 0.114 ratio.
The bound/input enrichment of `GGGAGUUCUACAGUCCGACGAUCUUACAGAUGCAUGGAAAACAAAGUCUCCAAGAAAACACUUCUGUCUUGAUGGUCUAUGGAAACCGACCUUGAAAAUAAGGUGUCUACAAGGUGUUUUGUGGUUUCUGUAUUUCUUCUUUUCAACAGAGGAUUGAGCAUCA` is reported as 0.103 ratio.
With `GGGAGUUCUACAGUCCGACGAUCAAUGGUGAAUCAGGAAAAGAAAUGGAUGACGAUAAAGAUGCAAAUAAAUCUGAAAUAAGCUCCGUGUUUGAGAUUGCGCUGAAGAGAAAUAUGCCUGUCAGUUUUGAGGUUAUUAAAGAACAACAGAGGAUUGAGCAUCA` the bound/input enrichment was 0.285 ratio.

A few entries again (block 1):
For `B7 (RFPL2 RING domain)`, “lacZ reporter activity” read 0.
`B6 (TRIM35 RING domain)`: “lacZ reporter activity” 0.
For `B2 (RNF150 RING domain)`, “lacZ reporter activity” read 0.
